# Results from different studies.
# Each numbered part is a random draw from the data of one study; scales do not carry over between parts.

# Study 1 — method: RNA Bind-n-Seq; form: RNA; sample: in vitro; concentration: 1 µM; setting: whole 134-nt RNA, ends assumed; added: 150 mM KCl; reference: input library; direction: higher = stronger binding
# Target: Ras GTPase-activating protein-binding protein 1, RRM domain (G3BP1, Homo sapiens, UniProt Q13283)
# UniProt Q13283, sequence (whole entry, looked up): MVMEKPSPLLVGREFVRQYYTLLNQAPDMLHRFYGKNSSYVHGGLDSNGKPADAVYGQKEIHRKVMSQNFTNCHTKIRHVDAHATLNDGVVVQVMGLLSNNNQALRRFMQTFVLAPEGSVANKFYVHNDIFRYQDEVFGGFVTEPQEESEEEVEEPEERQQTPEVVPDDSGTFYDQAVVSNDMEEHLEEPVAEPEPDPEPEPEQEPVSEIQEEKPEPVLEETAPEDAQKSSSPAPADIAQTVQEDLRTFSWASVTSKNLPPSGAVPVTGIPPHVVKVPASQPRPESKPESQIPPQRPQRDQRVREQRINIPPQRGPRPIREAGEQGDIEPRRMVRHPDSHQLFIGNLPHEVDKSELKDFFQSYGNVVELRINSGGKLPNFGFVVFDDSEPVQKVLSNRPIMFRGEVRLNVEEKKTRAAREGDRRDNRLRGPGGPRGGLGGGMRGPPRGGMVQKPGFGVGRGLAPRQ
Sequence,log2 enrichment
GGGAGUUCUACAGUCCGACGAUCCACAGACAACACGCACCCACACAGACACAGAGGGAAGGGGUUGGGAUGGGGACCGGGUGCACAGCAGGGCGGGGUAGGACCCCAGCCCCUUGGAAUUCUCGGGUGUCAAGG,0.405
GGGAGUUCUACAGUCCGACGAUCUCCUGUGCUACACAUCGUAUGUACCGAAUCGGGGAAAAAGGGGAAAGGGGAAAAAGGGGAAAGUAUUAUGUUACGCCGUUCGGAUCUGCAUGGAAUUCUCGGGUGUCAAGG,0.696
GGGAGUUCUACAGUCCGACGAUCUCCUGUGCUACACAUCGUAUGUACCGAAUCGGGUUUGGGUUUUUUUGGGAAAAAAAGGGAAAGUAUUAUGUUACGCCGUUCGGAUCUGCAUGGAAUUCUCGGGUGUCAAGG,0.0308
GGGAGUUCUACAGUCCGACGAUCUACUAUGAAGCCUUGUGCAAAUCCCUCGACUGGCAGAUAGACGUGGACCUACUCAAUAAAAUGAAGAAGGCAAAUGAAGAUGAGUUGAAGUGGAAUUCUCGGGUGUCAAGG,0.0268
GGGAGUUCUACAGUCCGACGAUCUCCUCAAGUCCUGUGCUACACAUCGUAUGUACCGAAUCGGUGGGUGGUGGGGAAAGUAUUAUGUUACGCCGUUCGGAUCUGCACUUCCAGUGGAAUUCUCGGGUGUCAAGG,-0.0777
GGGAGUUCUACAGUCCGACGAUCGUCCUGUGCUACACAUCGUAUGUACCGAAUCGGAAAAAAGGAAAAAAGGAAAAAAGGGAAAGUAUUAUGUUACGCCGUUCGGAUCUGCACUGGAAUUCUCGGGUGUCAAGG,0.0402
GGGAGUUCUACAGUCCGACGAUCGUCCUGUGCUACACAUCGUAUGUACCGAAUCGGAAAAAGGGGAAAAAGGGAAAAAGGGGAAAGUAUUAUGUUACGCCGUUCGGAUCUGCAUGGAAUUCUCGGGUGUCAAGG,0.228

# Study 2 — method: RNA Bind-n-Seq; form: RNA; sample: in vitro; concentration: 100 nM; reference: input RNA pool; direction: higher = stronger binding
# Target: RING finger protein unkempt homolog, zinc fingers 1-6, SBP tag (UNK, Homo sapiens, UniProt Q9C0B0, residues 30-357)
# UniProt Q9C0B0, sequence (30-357, looked up): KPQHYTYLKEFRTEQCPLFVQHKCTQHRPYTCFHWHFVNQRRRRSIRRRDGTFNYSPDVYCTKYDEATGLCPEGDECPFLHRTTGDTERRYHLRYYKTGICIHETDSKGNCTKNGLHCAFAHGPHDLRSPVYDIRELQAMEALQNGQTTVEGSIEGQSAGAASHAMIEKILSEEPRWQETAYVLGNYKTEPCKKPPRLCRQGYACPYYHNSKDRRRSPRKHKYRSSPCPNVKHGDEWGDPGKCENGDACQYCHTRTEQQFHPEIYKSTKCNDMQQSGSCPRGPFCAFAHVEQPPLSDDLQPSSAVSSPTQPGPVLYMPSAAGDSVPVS
# Setting: RNA with constant flanks, vertebrate orthologous sites, ends assumed
Sequence,bound/input enrichment
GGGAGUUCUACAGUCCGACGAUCUUGGGACCAGCUCUCCAAAUAAGAAUAGUAGCAAAAAAAAUAAGCAAAAUGAUAUUUGUAUAGAAAAAACAGAAGCUAAAUCAUGUAAAGUAAAUGCUGCCAACGUAGCAAGCCCUAAAGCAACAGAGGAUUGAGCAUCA,1.55 ratio
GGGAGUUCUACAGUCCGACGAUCCAGUUUGUAUGUACAUUACUCACAUUCCUCCUAUUGUGUUUGGGGAAAACAAAGACAUUUUAGCCUUUUUUUAAGGUUCUUGAUUUAAUUUGAAAUGUUAUUUGGUUGCAUGAAGUUGCCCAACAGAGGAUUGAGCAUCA,0.35 ratio
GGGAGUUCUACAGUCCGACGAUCUACUAGUGUCACACCAGCAUACUCACUGCUCCUUUGUACACAGCUUCCAAUCAACACUCUAGUUGUAUUUUUUUAAUUUAAACUAUGAAAUACUGCUUUUCCCAAGACUUUGAAAAAGAUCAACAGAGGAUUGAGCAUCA,0.969 ratio
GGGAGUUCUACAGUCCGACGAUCUUACAGUCAUUGAUGGACUCUAUUUUUUUAUUAUUACUUGGACCUUGGUCGUUUUUAUACUAGCAACGAAAAAUGUCUUGUUUUAAUUUGUUUUUUGGGGGUAUGGGGUGGGAAGUGUCUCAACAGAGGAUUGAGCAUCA,0.63 ratio
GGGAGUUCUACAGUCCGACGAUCUUCAACACCACUGGGUAGAAGGAUAAGGAUGGAGCAGCCAUCAUAGUUAGAAAGGAUCCAUCUUUGUCCCCAGACCAAGGUGGCAGCAGAUUUCUCCCUACCAGUCUAAAGAGCCUAGCCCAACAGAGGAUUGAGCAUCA,0.278 ratio
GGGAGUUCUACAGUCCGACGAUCAUUCAAACCUGUGGUACCCUGGCCUCAUGUUGAAGGAGUAGAAGUGGACUUAGAGUCUAUUAGAAGAAAAAACAAGGCCAAAAAUGAACAAGAACACCGUGUUGGAGGAGAUUCUCAGAACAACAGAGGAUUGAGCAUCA,0.277 ratio
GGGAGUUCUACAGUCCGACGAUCUCUAUCUCUUUUCCCCUGUCCUGAUUUUAAAAGCCCCCUCCUUUUUUUUUUUUCUUUUUUUAGGCAUAUGUAGUAAUAUUAGAAACAUUUAAUUUGGGAAACUUUGAUUCUUGAAAGAGACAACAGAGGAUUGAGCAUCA,0.986 ratio
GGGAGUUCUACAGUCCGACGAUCGCUCUAGUUCUUAACAACAGACACUCCAAAAAGAUUUAGAAAAAAGUUUACAACAUGAUCUAGUUUACGAAGAAGUCUUGUGCUGGAAUACUUUUUAAAAAGUAUUUUUGAAUACCAUCACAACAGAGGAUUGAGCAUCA,0.763 ratio
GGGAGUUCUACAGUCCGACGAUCUUCCUUAUUUCUUUCUUCCUGACUUUUUUUCUUUCGUUUCUUUUUUCUUUUUUUUUUUGGUAGUUGUUGUUACCCACGCCAUUUUACGUCUCCUUCACUGAAGGGCUAGAGUUUUAACUUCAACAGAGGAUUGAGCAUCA,2.46 ratio

# Study 3 — method: protein-binding microarray; form: double-stranded DNA, one strand shown; sample: in vitro; concentration: not given; direction: higher = stronger binding
# Target: Transcriptional repressor CTCF (CTCF, Homo sapiens, UniProt P49711, residues 1-727, full length assumed)
# UniProt P49711, sequence (whole entry, looked up): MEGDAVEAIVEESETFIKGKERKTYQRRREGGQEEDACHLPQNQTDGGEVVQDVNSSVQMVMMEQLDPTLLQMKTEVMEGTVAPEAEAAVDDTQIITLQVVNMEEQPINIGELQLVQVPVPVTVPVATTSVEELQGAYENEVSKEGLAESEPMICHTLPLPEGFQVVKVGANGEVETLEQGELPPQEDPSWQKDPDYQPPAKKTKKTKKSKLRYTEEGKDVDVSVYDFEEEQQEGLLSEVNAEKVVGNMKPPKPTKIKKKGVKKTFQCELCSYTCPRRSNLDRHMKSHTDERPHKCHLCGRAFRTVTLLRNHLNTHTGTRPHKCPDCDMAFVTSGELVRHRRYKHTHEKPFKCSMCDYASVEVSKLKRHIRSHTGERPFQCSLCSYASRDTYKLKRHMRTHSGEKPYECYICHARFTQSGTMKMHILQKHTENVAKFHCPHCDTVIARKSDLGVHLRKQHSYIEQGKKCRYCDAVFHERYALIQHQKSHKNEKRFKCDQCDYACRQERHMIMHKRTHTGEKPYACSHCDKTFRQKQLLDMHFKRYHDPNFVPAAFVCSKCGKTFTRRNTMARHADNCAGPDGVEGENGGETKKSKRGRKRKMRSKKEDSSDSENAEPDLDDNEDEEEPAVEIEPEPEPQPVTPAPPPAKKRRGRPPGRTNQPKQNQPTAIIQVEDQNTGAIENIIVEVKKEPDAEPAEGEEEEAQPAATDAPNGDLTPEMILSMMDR
# Setting: k-mer, scored over probes, only values ≥0.25
Sequence,E-score
CTGATAAA,0.294
CATTACAC,0.263
AAATGTAT,0.321
CTACAATA,0.26
ACTTACAC,0.262

# Other studies, line by line
Molecule,target,assay,system,setting,scale,endpoint,value
"PhoQ, residues 284 288 289 292 302 303 AAQSYM","PhoP, residues 12 14 15 18 19 VQALL (Escherichia coli, UniProt P23836)","Sort-seq, refers to: YFP reporter",E. coli,"PhoQ-PhoP variant library, added: 10 µM Mg2+","reference: high Mg2+ state, higher = stronger signaling",fold induction,2.83

# For quick reference, copied from above (study 1):
Sequence,log2 enrichment
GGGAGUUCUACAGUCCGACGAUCUCCUCAAGUCCUGUGCUACACAUCGUAUGUACCGAAUCGGUGGGUGGUGGGGAAAGUAUUAUGUUACGCCGUUCGGAUCUGCACUUCCAGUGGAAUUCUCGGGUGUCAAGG,-0.0777
